Assay results collected from several papers.
Parts stem from different laboratories: compare values within a part only.

Block 1 — method: RNA Bind-n-Seq; molecule type: RNA; medium: in vitro; tested at: 365 nM; relative to: no-protein control; reading: higher = stronger binding
Target: RNA binding protein fox-1 homolog 2, RRM domain, GST-SBP tag (RBFOX2, Homo sapiens, UniProt O43251-10, residues 100-194)
Setting: natural RNA segment, single round, ends assumed
Constant ends, left off below: GGGAGUUCUACAGUCCGACGAUC … UGGAAUUCUCGGGUGCCAA
Construct (chain): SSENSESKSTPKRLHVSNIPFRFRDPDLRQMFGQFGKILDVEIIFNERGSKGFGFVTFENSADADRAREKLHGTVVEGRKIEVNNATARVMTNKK
Strand | RBNS enrichment (R)
GUUCAUUUAGAAGGGAGCAAAGAGCGUUUUAAACUUUGAAAAGACCACAAAACAAACUGACCCUCCUAUUUUUAACUUGGAUACCUGCUAUUCUGCCAAAAGACAUUUUC | 0.319
AGAAACGAGAUCGGGAAGCAGAAAUAUAGUGCAAUAGUGCAACAUCUCUGAAUCCUUUUAAUCUAGAGAAGGCAUUUCAUAUUUGGGGGCUAAGGUUUCCAGUCAGAUGA | 0.278
GUUUGUUAUCUCAUCUGGAACCUACACCAAGAGAUGCAGUCAGCAUCUUAAAGUAAAUGUUCAUGGAAGCUAAAAAAUUUACCUCCUUUCCUUUUCCCUUUCCCCUUAAA | 0.658
GAAAUGUUUAAUUUCAGUUACUGUGAAUUCUUCUAAUCAGUUCGUUCUUUGAUUUUAAAAAGAAAAACCUUUUCCAUCAUAUUAAAGAGAAAAUUAGCUAUGGGAAGAUA | 0.863
CACCAUUGAUUUUUCCAAAAUGUGUUGGAGAUUUGGCUGGACAGGUUACCAUCAGAGUGGAUGUACCAUUGAGUUAAAAACAAGAUAGAAAAACUGCCAAGUUGUUUGGC | 0.523
CAGGCAGAUACUGCUGUAUUUAGACAUUUCUAUUUCAGUUCAUUAAAAACUGCAAAACCAAUCUGUAUCAUGUACCAAACUGACUUAAAAUAAAUCUACAUGUUUAUUGA | 0.368
CAGGUUUUAGGGUCCUGCAAAAGGCUAGCUCGGCACUACACUAGGGAAUUUGCUCCUGUUCUGUCACUUGUCAUGGUCUUUCUUGGUAUUAAAGGCCACCAUUUGCACAA | 0.7
UUGCAAAGCAAAAAAAGGUAUUUUCUUGAAAAUACUAUUUAAUGUUUAACUAGACUAUAGGUAGUUCCUUAAGGUUGUUUGACCUGAAGUGGAGUUGGGUUUGGAAGCUG | 0.299
GAGGCAGGAGAAUCGCUUGAACCUGGGAAGUGGAGGUUGAGUGAGCCGGGACCGUGCCAUUGUACUCCAGCCUGGGUGACAGAGCGAGAUUCCGUCUCAAAAAAAAAAAA | 0.391
GCAUUUUAUUCACCUGCAAGAUCACAUCCCUAGCUUUGAUUUUGCUUAAAUGAUAGGGACUUAAGAGUGCUGAUUGAAGAAAGAUCCUAUUCUUAGGUCUAACUCGAUUU | 0.552
GUCAGGUCUGUUCCCCAACUGAAAGGGCUGUAAAAGAAUGGAUUAAUGUUUAGCUCUCACAAAGAGAGAUAACCUUGGAUACAUCUUCAUCUUCUAGCUAUAUAAAGAAA | 0.62
UUAAUAUGGUCCAAUUGCUUUUCUUUUUAACGUGACAAAAAGAGAAUAAGGAACAAACACUAUUGCUGCCGAAUGCCAUAACACUGAGUUGUACAAAUUGUGAUUGAGGA | 1.39

Block 2 — method: protein-binding microarray; molecule type: double-stranded DNA, one strand shown; medium: in vitro; tested at: 2540 nM top; setting: 60-bp whole probe; added: salmon DNA 0.4 mg/ml; relative to: random background probes; reading: higher = stronger binding; constant ends, left off below: GCCTAGCAC … GTCTTGATTCGCTTGACGCTGCTG
Target: Interferon regulatory factor 3, full length, phosphomimetic (IRF3, Homo sapiens, UniProt Q14653, residues 1-427, S386D/S396D/S398D/S402D/T404D/S405D)
Residues (chain): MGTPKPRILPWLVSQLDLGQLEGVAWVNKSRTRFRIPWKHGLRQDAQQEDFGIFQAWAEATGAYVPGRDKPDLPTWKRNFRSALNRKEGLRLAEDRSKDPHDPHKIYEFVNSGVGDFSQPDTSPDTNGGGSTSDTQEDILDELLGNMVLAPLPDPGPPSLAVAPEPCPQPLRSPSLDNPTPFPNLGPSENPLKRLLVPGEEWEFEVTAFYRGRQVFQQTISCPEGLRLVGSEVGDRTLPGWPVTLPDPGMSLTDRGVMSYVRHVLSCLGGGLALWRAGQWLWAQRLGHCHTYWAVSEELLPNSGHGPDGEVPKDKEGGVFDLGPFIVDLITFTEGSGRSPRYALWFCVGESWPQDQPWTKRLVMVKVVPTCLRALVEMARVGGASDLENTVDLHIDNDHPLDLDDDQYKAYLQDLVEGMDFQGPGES
Strand | fitted relative affinity [z-score]
GCGGGAGAAAGCAAGCCCAGGTGCTAG | -0.832
TTAGATTCCAGACTGGATTAGTGCTAG | 2.52
TTAGGTCTCCTTTTCCTGTAGTGCTAG | 4.58
ATTTTTTTTTTCATCATTGCGTGCTAG | 1.35
CTCCTTTTAATTTTTAACGAGTGCTAG | 2.47
TTAGGAATCGGGACTGGGTTAGTGCTA | -0.478
TTAGAGCTCAGTCTCGATTAGTGCTAG | 0.289
GACGGTTTCGACTTTAGGGACGTGCTA | 3.76
ATTAGAGGATAACTTACAGAGTGCTAG | -0.0654
TCATCTCTGGCCCTCCTACTGTGCTAG | 0.45
TTAGGTTTCCTTCTCCTTTGGTGCTAG | 9.97
TACGGTTTCGACTTTCGGGACGTGCTA | 3.9
AACGAACTGAGACTGGAGACGTGCTAG | -0.245
TTAGGCCTGGGGACTGGGTTAGTGCTA | -1.34
GACGATATCAGACTGCAGACGTGCTAG | 0.253
CCCCCTTTTATATTGTAAGCGTGCTAG | 2.06
GACGACCTGGGGACTGGAGACGTGCTA | -0.906
TCATCTCCCATTATATTACTGTGCTAG | 1.6
TTAGATCTCAGTTTCGATTTGTGCTAG | 5.6
TTAGGCTTCGGGTTTCGGTTAGTGCTA | 2.14

Block 3 — method: universal PBM; molecule type: double-stranded DNA, one strand shown; medium: in vitro; tested at: 600 nM; reading: higher = stronger binding
Target: Sal-like protein 4, full length isoform A (SALL4, Homo sapiens, UniProt Q9UJQ4, residues 1-1053)
Sequence of UniProt Q9UJQ4 (whole entry, looked up): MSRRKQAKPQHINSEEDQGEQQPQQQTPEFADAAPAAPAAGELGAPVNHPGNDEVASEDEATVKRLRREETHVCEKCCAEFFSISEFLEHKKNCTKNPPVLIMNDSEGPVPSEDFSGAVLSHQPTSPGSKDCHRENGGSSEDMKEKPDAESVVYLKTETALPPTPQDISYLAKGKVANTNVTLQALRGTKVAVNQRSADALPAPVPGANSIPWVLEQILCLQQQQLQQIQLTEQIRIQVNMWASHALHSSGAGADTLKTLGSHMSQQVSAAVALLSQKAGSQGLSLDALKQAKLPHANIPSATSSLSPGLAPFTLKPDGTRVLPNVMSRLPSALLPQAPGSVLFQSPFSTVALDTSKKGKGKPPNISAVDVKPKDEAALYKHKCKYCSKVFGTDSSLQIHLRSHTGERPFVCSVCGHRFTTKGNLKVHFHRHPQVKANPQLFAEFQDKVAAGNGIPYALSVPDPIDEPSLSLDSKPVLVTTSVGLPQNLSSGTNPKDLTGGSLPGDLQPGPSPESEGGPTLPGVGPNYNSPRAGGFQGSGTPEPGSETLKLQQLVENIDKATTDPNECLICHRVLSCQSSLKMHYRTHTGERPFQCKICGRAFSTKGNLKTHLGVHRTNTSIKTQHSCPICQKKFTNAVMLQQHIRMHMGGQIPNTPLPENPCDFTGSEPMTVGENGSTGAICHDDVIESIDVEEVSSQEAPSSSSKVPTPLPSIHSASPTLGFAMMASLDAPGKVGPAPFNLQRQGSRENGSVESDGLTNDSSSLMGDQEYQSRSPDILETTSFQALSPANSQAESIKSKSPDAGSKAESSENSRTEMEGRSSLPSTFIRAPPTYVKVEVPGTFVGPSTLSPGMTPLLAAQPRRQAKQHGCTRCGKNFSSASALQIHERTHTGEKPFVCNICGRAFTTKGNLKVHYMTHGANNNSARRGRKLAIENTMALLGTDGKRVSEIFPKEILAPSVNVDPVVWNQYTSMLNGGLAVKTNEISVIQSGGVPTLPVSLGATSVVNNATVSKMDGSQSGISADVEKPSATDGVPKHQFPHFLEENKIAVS
Setting: 8-mer, flanks averaged, mean of replicates
Strand | E-score
CACGTGCA | -0.0999
ATCCTTCC | 0.00615
GGAAAATA | 0.36
CCTACAAG | 0.0147
TCATAACA | 0.366
TCCATAGA | 0.0538
CATTAATC | 0.234
ATTGGACG | 0.063
CCCTTCCC | -0.267
GCAGAGGC | -0.168
GGAATAAC | 0.0505
GACACGTA | 0.143
CTACTGAG | -0.0925
ACTCATCG | 0.086
ATTGACCA | 0.152
CATTAATG | 0.264
TAGCTCGA | -0.116
CCGAACAA | 0.117
GTTCACTA | 0.0162

Block 4 — method: protein binding microarray; molecule type: double-stranded DNA, one strand shown; medium: in vitro; tested at: not given; relative to: not given; reading: higher = stronger binding
Target: Histone acetyltransferase KAT6A, both winged helices, GST fusion (KAT6A, Homo sapiens, UniProt Q92794, residues 1-181)
Setting: 8-mer, flanks averaged, mean of 2 arrays, mostly near background
Target sequence (chain): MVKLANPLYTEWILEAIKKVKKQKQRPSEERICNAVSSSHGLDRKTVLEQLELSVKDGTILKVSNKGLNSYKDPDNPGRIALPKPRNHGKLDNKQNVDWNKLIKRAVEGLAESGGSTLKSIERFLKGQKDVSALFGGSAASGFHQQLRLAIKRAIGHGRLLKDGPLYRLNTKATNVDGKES
Strand | E-score
AATACATG | 0.00904
AAGTACGT | -0.0683
CATTGCGC | 0.218
GTTCTGCA | 0.0154
CAGCTAGG | -0.244
CCCAGCCG | 0.101
CAAGAGGG | -0.129
CGATTTGA | -0.177
TAATGGTA | -0.0918
AACTGACT | -0.0224
GAGTGTGC | -0.0806
CAGTATAA | -0.13
GATTAGCA | -0.0128
CATCCGGG | -0.00232
CTGGCGTA | 0.0879
ACGGATCA | 0.152
CAAGGTTC | -0.0522
AGGTGCCA | -0.244
CTGCGATC | 0.0201
CTTCCTTC | -0.0919
GGCGGTAC | 0.182
ATTCCCCA | -0.294
AAGCCCAA | -0.124
GAACATCA | -0.0085
CGCAGGAG | -0.0235

Block 5 — method: RNA Bind-n-Seq; molecule type: RNA; medium: in vitro; tested at: 20 nM; setting: 6-mer, flanks averaged, single round; added: 150 mM LiCl; relative to: input library; reading: higher = stronger binding
Target: TAR DNA-binding protein 43, full length, His tag (TARDBP, Homo sapiens, UniProt Q13148, residues 1-414)
Strand | 6-mer enrichment (R)
CGGUCA | 0.85
UUUUUA | 1.49
UUAGCG | 0.973
GGAACG | 0.993
GCUGGG | 1.15
UGGGGA | 1.27
ACACCG | 0.915
CAUACA | 0.839
GCCAAC | 0.882
UGGCCU | 1.02
UAACUA | 0.897
CAACUU | 0.868
AUUAUG | 1.03
UCGAAU | 0.855
AUUUCA | 0.908
GAGUUA | 0.991
UGCGUG | 1.54
GAGUGA | 1.26
GAUUAU | 0.913
GGUAUG | 1.5
AAUUCC | 0.911
CUUUGU | 1.12
CAACGU | 0.85
CUCCCG | 0.999
ACUACA | 0.842

A few entries again (block 5):
Strand | 6-mer enrichment (R)
GAGUUA | 0.991
UGCGUG | 1.54
GAGUGA | 1.26
GAUUAU | 0.913
GGUAUG | 1.5
AAUUCC | 0.911
